Measured values gathered from unrelated publications.
Numbers after ± are the reported error.
Sequence of UniProt Q15139 (whole entry, looked up): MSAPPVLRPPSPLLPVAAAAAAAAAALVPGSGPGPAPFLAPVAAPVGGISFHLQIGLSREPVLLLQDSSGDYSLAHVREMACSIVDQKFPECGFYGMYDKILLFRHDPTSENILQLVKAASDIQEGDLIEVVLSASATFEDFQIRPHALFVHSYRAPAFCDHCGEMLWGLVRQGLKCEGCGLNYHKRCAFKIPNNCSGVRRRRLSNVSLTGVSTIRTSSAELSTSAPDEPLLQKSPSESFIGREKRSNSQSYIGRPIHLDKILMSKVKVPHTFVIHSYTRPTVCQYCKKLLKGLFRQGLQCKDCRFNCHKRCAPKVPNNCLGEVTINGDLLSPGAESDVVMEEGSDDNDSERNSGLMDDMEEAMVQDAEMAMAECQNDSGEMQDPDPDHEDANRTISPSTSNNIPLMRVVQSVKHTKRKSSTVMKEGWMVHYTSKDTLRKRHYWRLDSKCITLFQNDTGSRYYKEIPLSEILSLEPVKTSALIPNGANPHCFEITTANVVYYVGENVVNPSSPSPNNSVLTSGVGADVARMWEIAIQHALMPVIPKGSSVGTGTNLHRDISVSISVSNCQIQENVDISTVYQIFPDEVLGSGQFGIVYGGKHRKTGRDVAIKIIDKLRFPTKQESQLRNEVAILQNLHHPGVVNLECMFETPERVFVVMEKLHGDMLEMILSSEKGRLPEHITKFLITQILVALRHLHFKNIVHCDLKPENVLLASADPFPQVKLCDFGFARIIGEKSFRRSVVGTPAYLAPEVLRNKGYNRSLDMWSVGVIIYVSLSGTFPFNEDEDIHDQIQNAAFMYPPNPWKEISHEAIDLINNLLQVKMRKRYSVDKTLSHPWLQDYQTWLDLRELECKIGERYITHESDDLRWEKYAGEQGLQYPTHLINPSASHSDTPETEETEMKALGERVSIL

The heart rate of `CCOC(=O)CNC(=O)CN1CCN(CC(=O)NCC(=O)OCC)CCN(CC(=O)NCC(=O)OCC)CCN(CC(=O)NCC(=O)OCC)CC1.[Eu+3]` is reported as 255 bpm (isolated perfused rat heart; concentration not given, after buffer washout).
The relative abundance of `COc1ccccc1-c1n[nH]c2nc(NC3CCN(C(=O)Cc4ccc(F)cc4F)CC3)ncc12` is reported as 1.26 (bead binding, competition bead pull-down, measured: LINJ.36.2070; Leishmania donovani extract; 10 µM; relative to: vehicle).
`CN1Cc2cc(Cl)ccc2-n2c(nnc2C2CCN(c3cccc([18F])n3)CC2)C1` has a tissue uptake of 10.3 ± 3.12 %ID/g (C57BL/6 mouse male, stomach; intravenous, dose not given, 5 min, added: blocking agent 10 mg/kg).
For `CC[C@H](C)[C@H](NC(=O)[C@H](CO)NC(=O)[C@H](Cc1ccc(O)cc1)NC(=O)[C@H](Cc1ccc(O)cc1)NC(=O)[C@H](CC(N)=O)NC(=O)CNC(=O)[C@H](CO)NC(=O)[C@H](Cc1ccc(O)cc1)NC(=O)[C@H](CO)NC(=O)[C@H](CO)NC(=O)[C@H](CC(N)=O)NC(=O)COCCOCCNC(=O)CN1CCN(CC(=O)O)CCN(CC(=O)O)CCN(CC(=O)O)CC1)C(=O)N[C@@H](CC(C)C)C(N)=O` [copper-64 labelled], the tumour uptake was 16.2 %ID/mL (dynamic PET; mouse, tamoxifen-induced PDAC, tumor; intravenous, 0.1 µg/mouse, 2.5 min).
`CC[C@H](C)[C@H](NC(=O)[C@H](Cc1ccc(O)cc1)NC(=O)[C@@H](NC(=O)[C@H](CCCNC(=N)N)NC(=O)[C@@H](N)CC(=O)O)C(C)C)C(=O)N[C@@H](Cc1c[nH]cn1)C(=O)N1CCC[C@H]1C(=O)O` gave a Cmax of 1150 ± 489 ng/mL (LC-MS/MS; Beagle dog both sexes, plasma; subcutaneous, 10 mg/kg/day, day 0, noncompartmental).
`CC(CCC(=O)NCC(=O)O)C1CCC2C3C(O)CC4CC(OC5OC(C(=O)O)C(O)C(O)C5O)CCC4(C)C3CCC12C` (stereo not shown) — result for “ratio of metabolic ratios”: 5.73 (measured: glucuronide to parent ratio; men, plasma; dose not given; relative to: C/C over T/T).
The health score of `N=C(N)NCCC[C@H](NC(=O)[C@H](CCCNC(=N)N)NC(=O)[C@H](CCCNC(=N)N)NC(=O)[C@H](CCC(N)=O)NC(=O)[C@H](CCCNC(=N)N)NC(=O)[C@H](CCCNC(=N)N)NC(=O)[C@H](CCCCN)NC(=O)[C@H](CCCCN)NC(=O)[C@H](CCCNC(=N)N)NC(=O)CNC(=O)[C@H](Cc1ccc(O)cc1)NC(=O)[C@H](Cc1ccccc1)NC(=O)[C@H](Cc1ccccc1)NC(=O)[C@H](Cc1ccccc1)NC(=O)OCC1c2ccccc2-c2ccccc21)C(=O)O` is reported as 5 (C57BL/6 mice; intraperitoneal, 10 mg/kg, 24 h; direction not given).
With `CC[C@H](C)[C@H](NC(=O)[C@H](CCCN)NC(=O)[C@H](CCCNC(=N)N)NC(=O)[C@@H]1CCCN1C(=O)[C@@H]1CCCN1C(=O)[C@H](CCCNC(=N)N)NC(=O)[C@@H]1CCCN1C(=O)[C@H](CCCNC(=N)N)NC(=O)[C@@H]1CCCN1C(=O)[C@H](CC(C)C)NC(=O)[C@H](Cc1ccc(O)cc1)NC(=O)[C@@H]1CCCN1C(=O)[C@@H]1CCCN1C(=O)[C@H](CCCCN)NC(=O)[C@H](CC(=O)O)NC(=O)[C@@H](N)C(C)C)C(=O)N[C@@H](Cc1ccc(O)cc1)C(=O)N[C@@H](CC(N)=O)C(=O)N[C@@H](CCCN)C(N)=O` the Cmax was 6700 ± 2000 ng/mL (competitive ELISA; mouse CD-1, female, plasma; subcutaneous, 4.34 µmol/kg).
`CC(C)(CCCC/C=C/CCCCCC(C)(C)C(=O)O)C(=O)O` has a plasma concentration of 12500 ng/mL (ICR mice, both sexes; oral, dose not given, 5 h).
Under “revertant colonies per plate”, `Cc1nc2cccc(OCC(C)(C)C(=O)NC(C)C)c2c(N)c1C(=O)[O-].[Na+]` is recorded as 135 ± 13 (Salmonella typhimurium; TA100; 2.0 mg per plate, without S9, plate incorporation).
The log LC50 of `CC(C)(C)C(=O)OCOP(=O)(OCOC(=O)C(C)(C)C)C1CCCN(O)C1=O` (stereo not shown) is reported as -4.03 log M (HCC 2998).
For `O=C1NC2(CC2)COc2ncc(F)cc2[C@H]2COCCN2c2ccn3ncc1c3n2`, the total cholesterol was 1.8 ± 0.26 mmol/L (Sprague-Dawley rat, female, serum; oral, 20 mg/kg/day, 4 weeks daily, end of recovery period).
`CCCCCCCCCCCCCCCC(=O)N[C@@H](CCC(=O)NCCOCCOCCC(=O)NCCOCCOCCC(=O)NCCCC[C@H](NC(=O)[C@H](CC(=O)O)NC(=O)[C@H](CC(C)C)NC(=O)[C@H](Cc1ccc(O)cc1)NC(=O)[C@H](CCCCN)NC(=O)[C@H](CO)NC(=O)[C@H](Cc1ccc(O)cc1)NC(=O)[C@H](CC(=O)O)NC(=O)[C@H](CO)NC(=O)[C@@H](NC(=O)[C@H](Cc1ccccc1)NC(=O)[C@@H](NC(=O)CNC(=O)[C@H](CCC(N)=O)NC(=O)[C@@H](CO)NC(=O)[C@@H](N)Cc1c[nH]cn1)[C@@H](C)O)[C@@H](C)O)C(=O)N[C@@H](CCCNC(=N)N)C(=O)N[C@@H](CCCNC(=N)N)C(=O)N[C@@H](C)C(=O)N[C@@H](CCC(N)=O)C(=O)N[C@@H](CC(=O)O)C(=O)N[C@@H](Cc1ccccc1)C(=O)N[C@H](C(=O)N[C@@H](CCC(N)=O)C(=O)N[C@@H](Cc1c[nH]c2ccccc12)C(=O)N[C@@H](CC(C)C)C(=O)N[C@@H](CC(C)C)C(=O)N[C@@H](CC(N)=O)C(=O)N[C@H](C(=O)NCC(=O)NCC(=O)N1CCC[C@H]1C(=O)N[C@@H](CO)C(=O)N[C@@H](CO)C(=O)NCC(=O)N[C@@H](C)C(=O)N1CCC[C@H]1C(=O)N1CCC[C@H]1C(=O)N1CCC[C@H]1C(=O)N[C@@H](CO)C(N)=O)[C@@H](C)O)C(C)C)C(=O)O` — result for “serum enzyme activity”: 25.8 ± 6.7 U/L (measured: ALT; Sprague-Dawley rat, female; subcutaneous, 500 µg/kg once daily, 14 days).
`CS(C)(=O)=Nc1ccc(-c2ccc(-c3nc4cc(O[C@@H]5CO[C@H]6[C@@H]5OC[C@H]6O)[nH]c4cc3F)cc2)cc1` has an inhibition of 13% (PRKD1 (Homo sapiens, UniProt Q15139); enzyme activity, inhibitor; 10 µM).
`CSCC[C@H](NC(=O)CNC(=O)[C@H](CCCCN)NC(=O)[C@H](CC(C)C)NC(=O)[C@@H]1CCCN1C(=O)[C@H](CO)NC(=O)[C@H](Cc1c[nH]cn1)NC(=O)[C@H](Cc1c[nH]c2ccccc12)NC(=O)[C@H](CCCNC(=N)N)NC(=O)[C@H](CC(C)C)NC(=O)[C@H](CCCNC(=N)N)NC(=O)[C@H](Cc1c[nH]c2ccccc12)NC(=O)[C@H](CS)NC(=O)CCCCCNC(=O)CN1CCN(CC(=O)O)CCN(CC(=O)O)CCN(CC(=O)O)CC1)C(=O)O` [copper-64 labelled] has a tissue uptake of 8.01 ± 0.62 %ID/g (PET imaging; BALB/c nude mice, liver; intravenous, dose not given, 9 h, Huh-7 tumour-bearing).
`CC[C@H](C)[C@H](NC(=O)[C@H](CCCCN)NC(=O)CNC(=O)[C@H](CC(C)C)NC(=O)[C@H](Cc1ccccc1)NC(=O)[C@H](CCCCN)NC(=O)[C@H](CO)NC(=O)[C@H](Cc1ccccc1)NC(=O)[C@H](Cc1c[nH]c2ccccc12)NC(=O)[C@H](CCC(N)=O)NC(=O)[C@@H](NC(=O)[C@H](Cc1ccccc1)NC(=O)CCCCCNC(=O)CN1CCN(CC(=O)O)CCN(CC(=O)O)CCN(CC(=O)O)CC1)C(C)C)C(=O)N[C@@H](CCC(=O)O)C(=O)N1CCC[C@H]1C(=O)N[C@@H](CC(=O)O)C(=O)N[C@H](C(=O)N[C@@H](CO)C(=O)N[C@@H](CCC(N)=O)C(=O)N[C@H](C(=O)N[C@@H](CCC(N)=O)C(=O)N[C@@H](CC(=O)O)C(=O)N1CCC[C@H]1C(=O)N[C@@H](CC(N)=O)C(=O)N[C@@H](CC(=O)O)C(=O)N[C@@H](CCC(N)=O)C(=O)N[C@@H](Cc1ccc(O)cc1)C(=O)N[C@@H](CCC(=O)O)C(=O)N1CCC[C@H]1C(=O)N[C@@H](Cc1ccccc1)C(=O)O)C(C)C)C(C)C` [copper-64 labelled] gave an SUVmean of 2.27 SUV (dynamic PET; mouse, CT26 tumour, checkpoint inhibitor-treated, tumour; intravenous, 100 µCi/mouse, 70 s).
The body weight of `COc1cnc2cccc(N3CCc4c(cc(Cn5ccnc5)cc4-c4cn(C)nc4C(F)(F)F)C3=O)c2c1` is reported as 27.7 ± 0.4 g (CD-1 mice; intraperitoneal, 50 mg/kg once daily, day 1).
The relative abundance of `COc1ccccc1-c1n[nH]c2nc(N[C@H]3CC[C@H](NS(=O)(=O)CC(C)C)CC3)ncc12` is reported as 0.92 (bead binding, competition bead pull-down, measured: LINJ.30.3000; Leishmania donovani extract; 10 µM; relative to: vehicle).
The Cmax of `O=C(c1cc(Cc2n[nH]c(=O)c3ccccc23)ccc1F)N1CC(CNC2CC2)C1` is reported as 2550 ng/mL (male Wistar Han rat; oral, 30 mg/kg, day 1).

Some of these lines once more:
`CSCC[C@H](NC(=O)CNC(=O)[C@H](CCCCN)NC(=O)[C@H](CC(C)C)NC(=O)[C@@H]1CCCN1C(=O)[C@H](CO)NC(=O)[C@H](Cc1c[nH]cn1)NC(=O)[C@H](Cc1c[nH]c2ccccc12)NC(=O)[C@H](CCCNC(=N)N)NC(=O)[C@H](CC(C)C)NC(=O)[C@H](CCCNC(=N)N)NC(=O)[C@H](Cc1c[nH]c2ccccc12)NC(=O)[C@H](CS)NC(=O)CCCCCNC(=O)CN1CCN(CC(=O)O)CCN(CC(=O)O)CCN(CC(=O)O)CC1)C(=O)O` [copper-64 labelled] has a tissue uptake of 8.01 ± 0.62 %ID/g (PET imaging; BALB/c nude mice, liver; intravenous, dose not given, 9 h, Huh-7 tumour-bearing).
